Measurements collected from several papers.
≈ marks a conversion by molar mass, not a printed value.

Structure (SMILES) | target or system | test | system | conditions | scale | quantity | result
CN1C(=O)C(C2C3=C(CC(C)(C)CC3=O)Oc3c(O)cccc32)C(=O)N(C)C1=O (stereo not shown) | 3T3-L1 preadipocytes | adipogenesis, Oil Red O staining |  | IC20, 14 days |  | mean lipid content | 0.584 OD492
COc1cc(Nc2nc(C)cc(-c3cnn4nc(OC)ccc34)n2)cc(C(F)(F)F)c1 | murine hepatitis virus | viral replication, nanoluciferase reporter | DBT | 1 µM | baseline: DMSO vehicle | inhibition | 1%
CC[C@H](C)[C@H](NC(=O)[C@H](C)NC(=O)[C@H](CCCCN)NC(=O)[C@H](CC(C)C)NC(=O)[C@H](C)NC(=O)[C@@H](NC(=O)[C@H](Cc1c[nH]cn1)NC(=O)[C@H](CC(C)C)NC(=O)[C@@H](NC(=O)[C@@H](NC(=O)[C@H](CCCCN)NC(=O)[C@H](C)NC(=O)[C@H](C)NC(=O)[C@H](CO)NC(=O)[C@H](CCCCN)NC(=O)[C@H](Cc1ccccc1)NC(=O)[C@@H](NC(=O)[C@H](CCCCN)NC(=O)[C@H](CC(C)C)NC(=O)[C@H](Cc1ccccc1)NC(=O)[C@H](CO)NC(=O)[C@H](CCCCN)NC(=O)[C@H](Cc1c[nH]c2ccccc12)NC(=O)[C@H](CCCCN)NC(C)=O)[C@@H](C)O)[C@@H](C)O)C(C)C)[C@@H](C)O)C(=O)N[C@@H](CO)C(=O)N[C@@H](CO)C(N)=O | Pseudomonas aeruginosa |  | IPM-R | 81 strains |  | MBC90 | 64 µg/mL (≈ 21.8 µM)
c1ccc(C(NCCNC(c2ccccc2)c2ccccc2)c2ccccc2)cc1 | 5-HT2 receptor, rat | binding |  | 10 µM, Eurofins selectivity panel |  | inhibition | 44%
COc1c(CCC[P+](c2ccccc2)(c2ccccc2)c2ccccc2)cc2c(c1OC)OCO2.[I-] | HCT-116 | SRB |  |  |  | TGI | > -4 log M
NCCc1ccc(Oc2ccc(O)cc2)c(I)c1 | human H+/organic cation antiporter |  | hCMEC/D3 | 250 µM, 2 min, added: 1 µM DPH preloading 30 min | baseline: control | trans-stimulation ratio | 0.86
CC[C@H](C)[C@@H]1NC(=O)[C@@H]2CCCN2C(=O)[C@H](CC(C)C)NC(=O)[C@H](CC(C)C)NC(=O)CNC(=O)[C@@H](NC(=O)[C@@H](NC(=O)[C@H](CC(=O)O)NC(=O)CNC(=O)[C@@H](NC(=O)[C@H](C)NC(=O)CNC(=O)[C@H](CCCCN)NC(=O)[C@H](CC(C)C)NC(=O)[C@H](CC(C)C)NC(=O)[C@H](CCCCN)NC(=O)CNC(=O)[C@@H](NC(=O)[C@@H](N)CC(C)C)C(C)C)C(C)C)C(C)C)CSSC[C@@H](C(=O)O)NC1=O |  | RNA-seq, item: Kdm6b | mouse, traumatic brain injury model, frontal cortex and hippocampus | dose not given | baseline: TBI alone | log2 fold change | -1.17
[131I-].[Na+] |  | radioiodine ablation | human hyperthyroidism patients | 185 MBq, 10 years, long-term follow-up |  | hypothyroid patients | 35.7%
N.N.[Cl][Pt][Cl] | CAL-27 | cell viability, MTT |  | 48 h |  | IC50 | 17.2 µM
O=C(NNc1ccc(Cl)c(Cl)c1)c1nnc(CC23CC4CC(CC(C4)C2)C3)o1 | Fusarium graminearum | fungal growth, inhibitor |  |  |  | EC50 | > 50 µg/mL

Repeated from above:
Structure (SMILES) | target or system | test | system | conditions | scale | quantity | result
CC[C@H](C)[C@@H]1NC(=O)[C@@H]2CCCN2C(=O)[C@H](CC(C)C)NC(=O)[C@H](CC(C)C)NC(=O)CNC(=O)[C@@H](NC(=O)[C@@H](NC(=O)[C@H](CC(=O)O)NC(=O)CNC(=O)[C@@H](NC(=O)[C@H](C)NC(=O)CNC(=O)[C@H](CCCCN)NC(=O)[C@H](CC(C)C)NC(=O)[C@H](CC(C)C)NC(=O)[C@H](CCCCN)NC(=O)CNC(=O)[C@@H](NC(=O)[C@@H](N)CC(C)C)C(C)C)C(C)C)C(C)C)CSSC[C@@H](C(=O)O)NC1=O |  | RNA-seq, item: Kdm6b | mouse, traumatic brain injury model, frontal cortex and hippocampus | dose not given | baseline: TBI alone | log2 fold change | -1.17
